Measurements from different studies.
Numbered parts are unrelated; each lists some results of a single study.

Block 1
Target: RING finger protein unkempt homolog, zinc fingers 1-6, SBP tag (UNK, Homo sapiens, UniProt Q9C0B0, residues 30-357)
Chain of UniProt Q9C0B0 (30-357, looked up): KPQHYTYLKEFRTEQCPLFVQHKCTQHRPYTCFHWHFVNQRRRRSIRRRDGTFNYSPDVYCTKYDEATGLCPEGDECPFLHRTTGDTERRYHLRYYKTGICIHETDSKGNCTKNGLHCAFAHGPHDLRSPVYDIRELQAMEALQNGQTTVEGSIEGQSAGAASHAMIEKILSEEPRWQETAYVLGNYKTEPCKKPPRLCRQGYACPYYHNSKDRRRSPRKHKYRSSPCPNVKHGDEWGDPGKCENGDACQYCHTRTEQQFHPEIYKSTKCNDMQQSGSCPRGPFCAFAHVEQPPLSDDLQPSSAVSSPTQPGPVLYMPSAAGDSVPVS
Technique: RNA Bind-n-Seq
Molecule type: RNA
Matrix: in vitro
Tested at: 100 nM
Setting: RNA with constant flanks, vertebrate orthologous sites, ends assumed
Baseline: input RNA pool
Reading: higher = stronger binding
Shared flanks, not repeated: GGGAGUUCUACAGUCCGACGAUC … CAACAGAGGAUUGAGCAUCA
`GGGGCGGUCGGUGGGGAAAUCCCAUGCCCUGGCCUGCCACCCCUCCCUGCCACCCGCUCCUAGUUAUUUUUUUUUUUUAACCACCAUGUGAUUAAGGUCGGCGCUGCCUCCCCCGACCCG` gave a bound/input enrichment of 3.36 ratio.
`GCUGUGUAGAGUAGGGCCCUGUUCUCCUUAGGAUGUUGCUUCUUGAUUUUUUUUUUUUUUUAGGGGUGGGUCAGGGUUGUGACACACCAGCCCAGGUGAGAGCUGCUGCGGGUCACCUCA` has a bound/input enrichment of 2.42 ratio.
`GAGCGCUGCUGUGCAGAUUGACCACACUGAAUGCAGAGUAGUAAUUUUCAUAGUCACAGUAAGGUAGCUUUAGGGCAGUAUCACCAUGUUCUCUCGUGUGCAGUUUUUGAAAAUGUACAA` gave a bound/input enrichment of 0.454 ratio.
`GUGGUUUUUAAACGUCAAUUGUGCAUAGCUUUGUGCUAAAGAUUGUGUUAGACUUAAAAAUUCAUGAAUUGGUUCUUUGUUGUGUUUUCAUUAUUGAAAAUAAAUAAAACUUUGAAUCUU` gave a bound/input enrichment of 0.272 ratio.
The bound/input enrichment of `UUCAGGCACAACUGACUGGUUCACAGCACUCCUUACAUAGUUAUCUAUCAAAUUCAAGUGUAGUUAAUUUUCAGGAAACAACCAGGCAGUCUUUAUCCUGUAGCCCAAUUGGAGAUUCCA` is reported as 1.57 ratio.
With `CAGCUGAUUCUCUCAUUGGGAGAGCCGCACACAUAGCUGUUCUUGACUCGGAAAUAUUUUUAGAGAAAUUCUUUCUGGUUGCUGCCCUCAAAUAUUUCCAAUAGGAUAAAAACAUUGUUA` the bound/input enrichment was 1.13 ratio.
The bound/input enrichment of `UAAGAUUUGGAAGAAUUGUAUAGGAGGCAGUAGUCAAAAAGUAGAAGCAGUUUGGAAGAGUAGUUACAAAUAUCAAGAGCCAGGUGGCUAAAAGGUGGAGCUAUAGGUCAUUGAAGCUCA` is reported as 1.07 ratio.
With `GUGAGCAGUGGAUUCUGGAGCAGAGCAAGGAGCAAGUCAAGCAAACCUCCAGUGAAACUGCUGCCAUCUGCACUAUCGUUAACCUGCUGUCACCUUUUUCAUAUAUAUAUAAAAUACUUA` the bound/input enrichment was 0.214 ratio.
The bound/input enrichment of `AGGGAGAAGAGCUCACAAACUCAAAGGAAAACUAUUAAAGAGUUUCUAAUAGUUAAAAGCUAGGAAAGAUUAGGACUUUACAAAUGAGUAAUUAAAAAUAAAAAGUAAAAGGAUAUGGAA` is reported as 0.786 ratio.
The bound/input enrichment of `GUCUGACUGCUGGAUGAAGACUGUUCCAAGUUAUAACCAAACAAAUCGCUCCAUGGACUUUAGAAAUUAUAUGAUGAGAGACGAGAAUCUGGAGCCGCUGCCCAAAAACUGGGAAAUGGC` is reported as 0.622 ratio.
`GCUGUUAAUGCACUGUUAUACCAGGCAUUGUCUGAAGUUAGUGUAAUCUAGAAGAUUUUAUAGUUUUAUUUUAAUGAAGUAUGAAUUGAAGCAAAGCUGUUAGGAGUAUGUAGUCUUUUA` has a bound/input enrichment of 2.11 ratio.

Block 2
Target: Interferon regulatory factor 7, full length, phosphomimetic (IRF7, Homo sapiens, UniProt Q92985, residues 1-503, S471D/S472D/S475D/S476D/S477D/S483D/S484D/S487D)
Technique: protein-binding microarray
Molecule type: double-stranded DNA, one strand shown
Matrix: in vitro
Tested at: 2200 nM top
Setting: 60-bp whole probe
With: salmon DNA 0.4 mg/ml
Baseline: random background probes
Reading: higher = stronger binding
Shared flanks, not repeated: GCCTAGCAC … GTCTTGATTCGCTTGACGCTGCTG
Construct (chain): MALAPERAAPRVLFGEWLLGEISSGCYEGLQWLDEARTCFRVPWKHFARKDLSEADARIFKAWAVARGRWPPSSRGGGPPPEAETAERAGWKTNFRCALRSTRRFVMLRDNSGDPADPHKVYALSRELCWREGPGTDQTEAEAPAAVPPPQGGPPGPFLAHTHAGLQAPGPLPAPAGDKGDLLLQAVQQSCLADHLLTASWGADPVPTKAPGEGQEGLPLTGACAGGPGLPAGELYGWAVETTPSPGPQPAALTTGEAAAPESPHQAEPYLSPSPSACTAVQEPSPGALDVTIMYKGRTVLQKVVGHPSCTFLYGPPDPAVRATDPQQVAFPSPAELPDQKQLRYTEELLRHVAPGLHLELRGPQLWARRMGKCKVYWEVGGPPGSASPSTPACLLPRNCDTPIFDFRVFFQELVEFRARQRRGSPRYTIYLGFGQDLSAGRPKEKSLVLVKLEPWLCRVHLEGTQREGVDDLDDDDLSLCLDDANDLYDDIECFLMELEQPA
For `GACGGTTTCGAGTATCGGGACGTGCTA`, “fitted relative affinity” read 3.61 z-score.
`TAAGGTTTCCTTTTCCTTTAGTGCTAG`: “fitted relative affinity” 7.01 z-score.
`GACGATTCCAGTTTGGAGACGTGCTAG`: “fitted relative affinity” 0.686 z-score.
`GACGGACTGGGTATCGGGACGTGCTAG` — result for “fitted relative affinity”: -0.793 z-score.
`GACGGACTGGACACTAGGGACGTGCTA`: “fitted relative affinity” -0.671 z-score.
Under “fitted relative affinity”, `TCACCTTTCGGAATACCACTGTGCTAG` is recorded as 5.4 z-score.
For `TTAGGCCTCGGACTGGGTTAGTGCTAG`, “fitted relative affinity” read -0.846 z-score.
Under “fitted relative affinity”, `GACGATTTCCGTTTCGAGACGTGCTAG` is recorded as 5.14 z-score.
For `GCAAGAACAGCTGGTGGGCAGTGCTAG`, “fitted relative affinity” read -0.482 z-score.
`ATATATATCCATTATAGATGGTGCTAG` — result for “fitted relative affinity”: 0.942 z-score.
`GACGATTTCTGGTATCGAGACGTGCTA`: “fitted relative affinity” 1.36 z-score.
`GGTGATTTCAGTTTTCTTTTGTGCTAG` — result for “fitted relative affinity”: 4.01 z-score.
Under “fitted relative affinity”, `TCATGCTTAGTATTTTTTACTGTGCTA` is recorded as 0.313 z-score.
`GACGGTCTCGGTATGGGGACGTGCTAG` — result for “fitted relative affinity”: 0.112 z-score.
For `GAAAATCCCACATTTGATAAAGTGCTA`, “fitted relative affinity” read 0.364 z-score.
`CTAATTTCCATTTTCTAAATGTGCTAG`: “fitted relative affinity” 4.48 z-score.
`TTAGGACGGGGTCTCGGTTAGTGCTAG`: “fitted relative affinity” -0.298 z-score.

Block 3
Target: Centromere-binding protein 1, full length, His-tagged (CBF1, Saccharomyces cerevisiae, UniProt P17106, residues 1-351)
Chain of UniProt P17106 (whole entry, looked up): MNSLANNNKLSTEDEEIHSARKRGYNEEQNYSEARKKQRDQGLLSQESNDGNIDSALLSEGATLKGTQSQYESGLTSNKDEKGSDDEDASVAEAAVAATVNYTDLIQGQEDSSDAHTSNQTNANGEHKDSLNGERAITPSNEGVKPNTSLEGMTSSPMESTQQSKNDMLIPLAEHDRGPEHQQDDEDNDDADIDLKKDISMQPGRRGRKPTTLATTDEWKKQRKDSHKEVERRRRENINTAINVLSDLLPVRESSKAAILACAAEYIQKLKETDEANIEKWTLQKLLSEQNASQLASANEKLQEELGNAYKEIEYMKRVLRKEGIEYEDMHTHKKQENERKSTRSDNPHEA
Technique: competition protein-binding microarray
Molecule type: double-stranded DNA, one strand shown
Matrix: in vitro
Tested at: 2 µM
Setting: whole 60-bp probe, lowest competitor level
With: Pho4 competitor, 0.05 µM
Reading: higher = stronger binding
Shared flanks, not repeated: … GTCTTGATTCGCTTGACGCTGCTG
For `CGTCCTAGCGATTGAGGGGTGGGTGCCATGAGGAAG`, the fluorescence intensity was 80.8 a.u.
For `TGCGCAACAACTTTTCACGTGGCATTATGTCTAGAA`, the fluorescence intensity was 877 a.u.
The fluorescence intensity of `CACTGAGTGAGCCGCCTCGTGCGATGCGTTAGAAAA` is reported as 84.1 a.u.
`CGGGGTTAAGTTTGGCATGTGGGTGGCTTGCAGCAG` has a fluorescence intensity of 84.7 a.u.
`AATCCCTTATCCCGTCACGTGAATTAAACTTCGGGT` has a fluorescence intensity of 5590 a.u.
`ATTAAGTCTCTTCATCCCGTGTACTATTACCCGACA` has a fluorescence intensity of 122 a.u.
The fluorescence intensity of `GTTATAAGTGCTTTTCTCGTGCATCCCTTGGCACTT` is reported as 81.9 a.u.
`ATCTAGAATATCCTACACGTCATCAGCGATTATCCG` has a fluorescence intensity of 78.4 a.u.
For `CGGGAAATATTTCAGCATGTGATGTGGCTGAAAATT`, the fluorescence intensity was 905 a.u.
The fluorescence intensity of `CATACCCAACCTTGAATAGTGGGTGAAGATATTTGT` is reported as 73 a.u.
`GGTTAAACAGAAAAAGACGTGACGGTGTAACCGAGA` has a fluorescence intensity of 108 a.u.
With `CTTTCCCGATCTTGATACGTGGGTGTAGCACATTTG` the fluorescence intensity was 64.6 a.u.
`TGCTGTAGAGTTCACCACGTGAGGTAAATATTGGGA` has a fluorescence intensity of 1600 a.u.
`CATACCCAACCTTGCCGCGTGGGTGAAGATATTTGT` gave a fluorescence intensity of 76.5 a.u.
With `CTAACATCGTCCGCGCAGGTGACGCCTCCCGCGCTG` the fluorescence intensity was 84 a.u.
`GCGCCTTTACGCCTTCACGTGGAACAAGACACTTTA` gave a fluorescence intensity of 622 a.u.

Block 4
Target: Histone acetyltransferase KAT6A, both winged helices, GST fusion (KAT6A, Homo sapiens, UniProt Q92794, residues 1-181)
Technique: protein binding microarray
Molecule type: double-stranded DNA, one strand shown
Matrix: in vitro
Tested at: not given
Setting: 8-mer, flanks averaged, mean of 2 arrays, mostly near background
Baseline: not given
Reading: higher = stronger binding
Construct (chain): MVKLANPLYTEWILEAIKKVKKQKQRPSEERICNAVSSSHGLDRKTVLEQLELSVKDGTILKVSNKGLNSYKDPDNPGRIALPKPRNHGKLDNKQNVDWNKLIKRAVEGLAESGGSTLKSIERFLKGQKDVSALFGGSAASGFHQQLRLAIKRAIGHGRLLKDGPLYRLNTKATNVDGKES
The E-score of `ACTGGCTA` is reported as -0.163.
`CCTTCGAG` gave an E-score of -0.0268.
`CAAGCGGG` has an E-score of 0.228.
`TGCCAACA` has an E-score of -0.219.
`TCACTCCA` has an E-score of -0.197.
`GTCTAGAA` has an E-score of 0.06.
The E-score of `CCTCGATC` is reported as -0.134.
`ACTTTGGG` has an E-score of -0.16.
With `GCCTAGGA` the E-score was -0.191.
With `TACACGTA` the E-score was -0.0478.
The E-score of `CGGGCTAG` is reported as 0.114.
`AGATATAG` gave an E-score of -0.045.
With `GACTAGGC` the E-score was -0.107.
The E-score of `TCACCAAA` is reported as -0.0519.
For `CGTTGATC`, the E-score was 0.0808.
`AAGAGGTG` gave an E-score of -0.101.
`GCGCGAGA` has an E-score of 0.252.
`CTGACCAC` has an E-score of -0.176.
For `CCAACAAC`, the E-score was -0.231.
The E-score of `CCAACTCA` is reported as -0.205.
With `GCTGTCAC` the E-score was -0.00528.
For `ACAAGACT`, the E-score was -0.213.
`CAGGAGGC` has an E-score of -0.0754.
